Literature values that unrelated publications cite.

Cc1ccc2nc(SCc3cn(-c4cccc(C(=O)O)c4)nn3)n(Cc3ccccc3)c(=O)c2c1
IC50 (VEGFR-2; inhibitor): 127 nM

COc1cc2ncnc(Sc3nnc(C)s3)c2cc1OC
IC50 (VEGFR-2; kinase activity, inhibitor): 32 nM

COc1ccccc1/C=C1\SC(=O)N(CC(=O)Nc2ccc(C(=O)Nc3ccc(Cl)cc3)cc2)C1=O
IC50 (VEGFR-2): 81 nM

CN(C)c1ccc(C2CC(c3c(O)c4ccccc4oc3=O)=NN2c2nc(-c3ccccc3)c(/N=N/c3ccc(Cl)cc3)s2)cc1 (stereo not drawn)
IC50 (VEGFR2; inhibitor): 34 nM

Cc1ccc(Nc2cc(Oc3ccc4[nH]ccc4c3)ncn2)cc1S(N)(=O)=O
IC50 (VEGFR-2; inhibitor): 45 nM

O=C(Cn1cc(Cn2c(=O)c(Cc3ccccc3)nc3ccccc32)nn1)NNC(=S)Nc1ccccc1
IC50 (VEGFR-2; kinase activity, inhibitor): 37 nM

C=CCSc1nnc(-c2cc3ccccc3[nH]2)n1/N=C/c1c[nH]c2ccccc12
IC50 (VEGFR2; kinase activity, inhibitor): 19.8 nM

O=C(Nc1nc2cc(Cl)ccc2s1)c1cn(-c2ccccc2)nc1-c1ccc(F)cc1
IC50 (VEGFR-2; kinase activity, inhibitor): 96 nM

O=C(Cn1cc(Cn2c(=O)c(Cc3ccccc3)nc3ccccc32)nn1)N/N=C/c1cccnc1
IC50 (VEGFR-2; kinase activity, inhibitor): 1090 nM
